Results of several laboratories.
Every numbered part comes from another study and shows a few of its results, in no order.

Sample 1
Target: Interferon regulatory factor 3, full length, phosphomimetic (IRF3, Homo sapiens, UniProt Q14653, residues 1-427, S386D/S396D/S398D/S402D/T404D/S405D)
Method: protein-binding microarray
Molecule type: double-stranded DNA, one strand shown
Medium: in vitro
Concentration: 2540 nM top
Setting: 60-bp whole probe
Added: salmon DNA 0.4 mg/ml
Relative to: random background probes
Direction: higher = stronger binding
Shared flanks, not repeated: GCCTAGCAC … GTCTTGATTCGCTTGACGCTGCTG
Construct (chain): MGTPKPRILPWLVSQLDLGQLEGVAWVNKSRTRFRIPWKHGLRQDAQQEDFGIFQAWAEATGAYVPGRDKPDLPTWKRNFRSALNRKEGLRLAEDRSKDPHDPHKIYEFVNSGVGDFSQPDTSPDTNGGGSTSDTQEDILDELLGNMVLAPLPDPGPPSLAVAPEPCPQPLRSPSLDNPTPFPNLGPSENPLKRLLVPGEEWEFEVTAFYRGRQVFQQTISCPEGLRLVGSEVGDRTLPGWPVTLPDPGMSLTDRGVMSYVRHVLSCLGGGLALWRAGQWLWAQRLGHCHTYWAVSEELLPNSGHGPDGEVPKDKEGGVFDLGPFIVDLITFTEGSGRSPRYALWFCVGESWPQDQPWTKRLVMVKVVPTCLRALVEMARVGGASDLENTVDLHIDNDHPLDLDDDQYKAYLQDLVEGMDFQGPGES
Oligonucleotide	fitted relative affinity [z-score]
CACGATATCAGACTGGAGACGTGCTAG	0.00381
ATAGGACTGCTTTTCCTTTAGTGCTAG	0.978
TTAGGTTCCGCTTTCGGTTAGTGCTAG	4.91
GACGGTCTCGGTTTCAGGACGTGCTAG	3.17
GACGGTCTCCCTCTCCTGACGTGCTAG	2.54
TCACTTTTCAGTCCCCTACTGTGCTAG	1.94
TTAGGACTGGGGTCTCGGTTAGTGCTA	-0.939
TTAGGACTGGGGTTTCGGATAGTGCTA	1.55
GACGATCTCAGGTTCGAGACGTGCTAG	0.414
GACGAACTGAGTCTCGTGACGTGCTAG	-0.428
TTAGGTTTCGGTTTCGGCTAGTGCTAG	11.1
GACGGTATCGACACTCGGGACGTGCTA	0.596
TTAGGTCTCGGGATCGGTTAGTGCTAG	0.0497
TTTTTTTTCTTTAAAAGTGAGTGCTAG	2.4
TCCCTTCAACAGTGCTGGCTGTGCTAG	0.92
ATGCATGTGCTGTCTCAGAGTGTGCTA	0.00532
GACGATATAGGGACTGGAGACGTGCTA	-0.333

Sample 2
Target: Sal-like protein 4, full length isoform A (SALL4, Homo sapiens, UniProt Q9UJQ4, residues 1-1053)
UniProt Q9UJQ4, sequence (whole entry, looked up): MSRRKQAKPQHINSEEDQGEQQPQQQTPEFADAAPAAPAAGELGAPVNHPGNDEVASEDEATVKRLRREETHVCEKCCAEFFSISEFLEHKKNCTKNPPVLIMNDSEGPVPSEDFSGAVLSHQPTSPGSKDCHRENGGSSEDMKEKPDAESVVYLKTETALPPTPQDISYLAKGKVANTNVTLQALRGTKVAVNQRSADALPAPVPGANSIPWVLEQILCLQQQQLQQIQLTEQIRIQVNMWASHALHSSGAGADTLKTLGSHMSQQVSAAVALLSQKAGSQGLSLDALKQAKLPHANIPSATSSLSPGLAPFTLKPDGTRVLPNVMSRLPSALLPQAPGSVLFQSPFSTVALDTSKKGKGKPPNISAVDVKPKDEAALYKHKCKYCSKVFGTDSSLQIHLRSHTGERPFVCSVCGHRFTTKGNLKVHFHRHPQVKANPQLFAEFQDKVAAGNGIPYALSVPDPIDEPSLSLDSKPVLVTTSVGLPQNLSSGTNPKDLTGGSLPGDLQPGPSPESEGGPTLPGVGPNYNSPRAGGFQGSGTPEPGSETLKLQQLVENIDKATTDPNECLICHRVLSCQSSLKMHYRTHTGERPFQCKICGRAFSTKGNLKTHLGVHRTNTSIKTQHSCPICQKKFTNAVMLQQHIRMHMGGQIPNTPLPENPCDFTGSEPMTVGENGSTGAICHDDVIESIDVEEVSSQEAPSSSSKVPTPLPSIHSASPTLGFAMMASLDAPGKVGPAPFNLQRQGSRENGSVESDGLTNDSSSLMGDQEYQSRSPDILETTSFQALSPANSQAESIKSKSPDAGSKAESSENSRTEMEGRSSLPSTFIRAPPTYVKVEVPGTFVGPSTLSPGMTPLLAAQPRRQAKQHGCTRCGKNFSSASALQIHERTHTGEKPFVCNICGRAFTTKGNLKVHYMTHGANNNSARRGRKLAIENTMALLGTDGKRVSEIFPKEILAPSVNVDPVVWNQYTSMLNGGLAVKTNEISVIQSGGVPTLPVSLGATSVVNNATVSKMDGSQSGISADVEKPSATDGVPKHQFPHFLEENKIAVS
Method: universal PBM
Molecule type: double-stranded DNA, one strand shown
Medium: in vitro
Concentration: 600 nM
Setting: 8-mer, flanks averaged, mean of replicates
Direction: higher = stronger binding
Oligonucleotide	E-score
AAATCCTC	-0.193
ATTACTGC	0.157
CGGCGTGA	-0.253
CCGCGGAA	-0.258
CACTCAAC	0.174
TGAATTAA	0.312
ACTGCCTG	-0.126
CGCGACCA	-0.216
GGGGTGTA	-0.226
ACTTTTCA	0.156
CCCACGGG	-0.352
CACATCGG	-0.181
AACTCGTG	0.0324
CGCGAAAA	0.0388
CCAACGGA	-0.224
CACAGAAG	-0.075
CTTAGAAG	-0.0167
CTGGAGAC	-0.267
CACCCCGG	-0.33
ACGCCACA	-0.048
CTACTAGC	0.022
CAAGGCAC	-0.263

Sample 3
Target: Prothrombin, mature alpha-thrombin (F2, Homo sapiens, UniProt P00734)
Method: aptamer microarray, sandwich
Molecule type: DNA with 2'F-ANA
Medium: in vitro
Concentration: 200 nM
Setting: whole 15-mer aptamer, many near background
Added: Cy3 exosite-II aptamer, 400 nM
Direction: higher = stronger binding
Oligonucleotide: GGTTGGTGTGGTTGG
Modification	mean fluorescence intensity
2'F-ANA at 2 3 4 5 7 8 9 10 11 12 14	49.3 a.u.
2'F-ANA at 2 3 5 6 9 10 11 12 15	58.5 a.u.
2'F-ANA at 1 4 8 10 11	57.1 a.u.
2'F-ANA at 1 2 3 4 9 10 11 12 15	100 a.u.
2'F-ANA at 6 7 12 14 15	241 a.u.
2'F-ANA at 2 3 5 6 12 15	173 a.u.
2'F-ANA at 1 8 11 12	352 a.u.
2'F-ANA at 1 2 9 11	139 a.u.
2'F-ANA at 2 6 7 8 9 10 11 12 13 14 15	108 a.u.
2'F-ANA at 4 5 7 8 9	212 a.u.
2'F-ANA at 5 7 9 12 14	45.7 a.u.
2'F-ANA at 1 2 3 5 7 8 10 12	52.4 a.u.
2'F-ANA at 3 5 7 8 10 13	55.6 a.u.
2'F-ANA at 3 5 8 11 12 14	130 a.u.
2'F-ANA at 2 3 6 7 10 14	277 a.u.
2'F-ANA at 2 6 7 12 13 14 15	166 a.u.
2'F-ANA at 1 2 8 9 11 14	54.9 a.u.
2'F-ANA at 1 3 4 5 6 9 10 13 14	46.8 a.u.
2'F-ANA at 2 4 5 7 11 13	66.5 a.u.
2'F-ANA at 1 3 4 6 7 9 10 15	63.1 a.u.
2'F-ANA at 1 2 5 7 11	60.4 a.u.
2'F-ANA at 2 3 4 5 6 10 13	46.7 a.u.
2'F-ANA at 1 3 5 6 8 9 10 11 12 13 14 15	58.3 a.u.
2'F-ANA at 1 2 3 4 10 13 14 15	51.3 a.u.
2'F-ANA at 2 6 7 8 9 10 13 15	96.2 a.u.

Sample 4
Target: RNA binding protein fox-1 homolog 2, RRM domain, GST-SBP tag (RBFOX2, Homo sapiens, UniProt O43251-10, residues 100-194)
Method: RNA Bind-n-Seq
Molecule type: RNA
Medium: in vitro
Concentration: 365 nM
Setting: natural RNA segment, single round, ends assumed
Relative to: no-protein control
Direction: higher = stronger binding
Shared flanks, not repeated: GGGAGUUCUACAGUCCGACGAUC … UGGAAUUCUCGGGUGCCAA
Construct (chain): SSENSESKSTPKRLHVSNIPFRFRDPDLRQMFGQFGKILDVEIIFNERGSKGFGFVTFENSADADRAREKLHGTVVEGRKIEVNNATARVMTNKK
Oligonucleotide	RBNS enrichment (R)
AUGGAAGAACAAACAAAAAGGACUUUCCAUGUAGCCUUCCUCCAUGUGGCCUAGUGAAACAUGGAUCUUGUUUAAAAGGCAUCUGAUUUUAUGCAGACACGUGUCUGAAA	0.293
AUGUCCUCAGUAACUCAUACCUGGCUUUGAAUUAGGAGUGGCUAGGAGGGUUCUAGUCUGUGCAAACAUUAAUAAAAAUUAUUUUGAAUUUUAGGAUUUUAAAAUGGUUG	0.914
CCUUGGCCUGAGAGGCAGCCAAGGACUAGAGGGGGAAGGAUAUCCCCCAAGUUCCCUCAGAGGCUUUUCCCAGCAGGUACCCCAUUCUGGGUAUCUGUCUGGUUCUAUUU	0.275
CUCUUUACAAACUGGCAUCUUAAGUUUUAGUGCCAUGUCGCUGUAGUCUGCUGCUUUCCUGGGUGGAUGAACCUCUUUAUUAUGGUAACUUCUGUGCUGCUUUGCCCCUA	0.85
GUCGAUUUCCUGCCACCUGGGCAGAUAACCUGGAGAUUUUCACCUUUUCUUUUCAGCUUGAUUGCAUUUGACUAUAUUUUACAGCCAGUGAUUGUAGUUUCAUGUUAAUA	0.443
GGGCUGUAGGGGUUGGAUUAGCAUGGGCUCAAGCUACACCAGCUCUGAAGAGGAGGAGCAGGAGGAGCCUGCCCACUGGGCAUCGUGCCAUCCCCAUCAGGACCUCAGAC	0.557
UACAUCCCAGGCCACCACCUCCGAGGAUGAAAAGAUGGCUGCCUGCAGCUUCCACGGAAUCCCUCCCUCACUGCCAGAGCAGCAUCUUCUCUGUGUACCACCUCUGCUGU	2.16
UAACUUUGAAGUCUUGUAUGAUUUAAUUAUGUUUAAUGAGUUAGAAUGGUUUGCUUUGUAUUACAGAACCACUUAUUUGUAUACUGCAGACAGCUCUAGAGUGGCACUGG	0.897
GGAGAAAGCAGCAGCGUAGCGGGACCGUUUGGGAAAGGCUACUUUGGCUGGGGGUGGCUGGGAAAGGCCCCUCUGGGAAAGAGACAGUUUUACUGAGUCAGAUGGUGGAA	0.523
GCAUGGCUUUGUAGUUUGCAUUUAACCUGGGGAUCUAUGCAUCCUGUCAAGAGGGUGGGUCCCCAUCCCCGUGUGUGGAAAAGAGACAGUGUGGCUUGCUGCCAGGCUCA	9.23
AAAAAUGGGGCCACCUCUUGCCAGCAGUAGCAGGGCUGCCCAUGCCCCUUCCUCCCCAUGCCCCAUAUCCAGCCCUGGGCUCCUGUGCCUCUGUUUUGCUGGGUCUGUGG	0.452
GCUUGACUAACAGUCGAGGCAGUGAACUGGGUGUAGAAAGCGUCAGGAAAUGGCCACAUGUGUGGAUGGUUUAAUUAGAUUCUGUGGAGUCUCACAGUGGGAUUGUGGUU	1.25

Repeated from above (sample 2):
Oligonucleotide	E-score
CCCACGGG	-0.352
CACATCGG	-0.181
AACTCGTG	0.0324
CGCGAAAA	0.0388
CCAACGGA	-0.224
CACAGAAG	-0.075
CTTAGAAG	-0.0167
